{"data": "Results collected from several papers", "note": "Parts stem from different laboratories: compare values within a part only. Positions count from the first letter of the parent shown."}
{"data": "Set 1", "target": "CCND2, cyclin fold, Cln2 fusion (human)", "technique": "yeast growth competition, sequencing", "medium": "yeast", "setting": "weak parent motif", "reference": "not given", "reading": "higher = stronger binding", "starting sequence": "SLBP docking peptide (human); ARYKRKLLINDFG"}
{"Substitution": "K4E", "normalised enrichment score": 0.395}
{"Substitution": "R2P", "normalised enrichment score": 0.318}
{"Substitution": "K4L", "normalised enrichment score": 0.219}
{"Substitution": "D11H", "normalised enrichment score": 0.104}
{"Substitution": "R2M", "normalised enrichment score": 0.406}
{"Substitution": "L7F", "normalised enrichment score": 0.0671}
{"Substitution": "R5P", "normalised enrichment score": 0.184}
{"Substitution": "D11Q", "normalised enrichment score": 0.434}
{"Substitution": "L7N", "normalised enrichment score": 0.505}
{"Substitution": "F12Q", "normalised enrichment score": -0.185}
{"Substitution": "L7D", "normalised enrichment score": 0.399}
{"Substitution": "L7S", "normalised enrichment score": 0.121}
{"Substitution": "N10W", "normalised enrichment score": 0.273}
{"Substitution": "I9Y", "normalised enrichment score": 0.0139}
{"Substitution": "G13N", "normalised enrichment score": -0.144}
{"Substitution": "Y3Q", "normalised enrichment score": 0.18}
{"Substitution": "N10Q", "normalised enrichment score": 0.458}
{"Substitution": "K4D", "normalised enrichment score": 0.089}
{"Substitution": "D11K", "normalised enrichment score": -0.445}
{"Substitution": "I9L", "normalised enrichment score": 0.397}
{"Substitution": "D11G", "normalised enrichment score": 0.044}
{"Substitution": "L8A", "normalised enrichment score": 0.309}
{"Substitution": "L7C", "normalised enrichment score": 0.221}
{"Substitution": "L7K", "normalised enrichment score": 0.173}
{"Substitution": "K6F", "normalised enrichment score": -0.109}
{"data": "Set 2", "target": "Histone acetyltransferase KAT6A, both winged helices, GST fusion (KAT6A, Homo sapiens, UniProt Q92794, residues 1-181)", "technique": "protein binding microarray", "form": "double-stranded DNA, one strand shown", "medium": "in vitro", "concentration": "not given", "setting": "8-mer, flanks averaged, mean of 2 arrays, mostly near background", "reference": "not given", "reading": "higher = stronger binding", "Construct (chain)": "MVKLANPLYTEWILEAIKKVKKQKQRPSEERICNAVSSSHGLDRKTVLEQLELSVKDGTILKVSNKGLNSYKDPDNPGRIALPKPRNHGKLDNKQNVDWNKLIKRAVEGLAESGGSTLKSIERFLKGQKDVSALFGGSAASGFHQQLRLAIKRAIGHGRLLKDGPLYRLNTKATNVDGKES"}
{"Oligonucleotide": "AACATGAC", "E-score": 0.0268}
{"Oligonucleotide": "CAAATAGC", "E-score": -0.0242}
{"Oligonucleotide": "GTAGCAAA", "E-score": -0.107}
{"Oligonucleotide": "GGGCCTCA", "E-score": 0.0592}
{"Oligonucleotide": "TCGGGGCA", "E-score": 0.0257}
{"Oligonucleotide": "CTTCGAGC", "E-score": 0.139}
{"Oligonucleotide": "CAAAGAAA", "E-score": -0.146}
{"Oligonucleotide": "ACCCAAAG", "E-score": -0.112}
{"Oligonucleotide": "GAGTCACA", "E-score": -0.0698}
{"Oligonucleotide": "GGCTCTAA", "E-score": -0.104}
{"Oligonucleotide": "ACAGGGGC", "E-score": -0.101}
{"Oligonucleotide": "GCTAACCC", "E-score": 0.0547}
{"Oligonucleotide": "ATGTCAAC", "E-score": -0.0622}
{"Oligonucleotide": "ACAGTGGA", "E-score": -0.077}
{"Oligonucleotide": "ACAATATC", "E-score": 0.0318}
{"Oligonucleotide": "CGTCCTAA", "E-score": -0.0936}
{"Oligonucleotide": "ATCCCAAA", "E-score": -0.168}
{"Oligonucleotide": "ATTAGGGA", "E-score": -0.178}
{"Oligonucleotide": "AACGGAAA", "E-score": 0.259}
{"Oligonucleotide": "AGCCGGAA", "E-score": 0.192}
{"Oligonucleotide": "ATCCGTTA", "E-score": 0.171}
{"Oligonucleotide": "CCCGGCGC", "E-score": 0.322}
{"Oligonucleotide": "ATTTATTA", "E-score": -0.0386}
{"Oligonucleotide": "ACGAAGTC", "E-score": -0.141}
{"Oligonucleotide": "ATTCAGGA", "E-score": -0.155}
{"data": "Set 3", "target": "RING finger protein unkempt homolog, zinc fingers 1-6, GST-SBP tag (UNK, Homo sapiens, UniProt Q9C0B0, residues 30-357)", "technique": "RNA Bind-n-Seq", "form": "RNA", "medium": "in vitro", "concentration": "not given", "setting": "RNA with constant flanks, human and mouse sites, ends assumed", "reference": "input RNA pool", "reading": "higher = stronger binding", "constant ends, left off below": "GGGAGUUCUACAGUCCGACGAUC … CAACAGAGGAUUGAGCAUCA", "Residues (chain)": "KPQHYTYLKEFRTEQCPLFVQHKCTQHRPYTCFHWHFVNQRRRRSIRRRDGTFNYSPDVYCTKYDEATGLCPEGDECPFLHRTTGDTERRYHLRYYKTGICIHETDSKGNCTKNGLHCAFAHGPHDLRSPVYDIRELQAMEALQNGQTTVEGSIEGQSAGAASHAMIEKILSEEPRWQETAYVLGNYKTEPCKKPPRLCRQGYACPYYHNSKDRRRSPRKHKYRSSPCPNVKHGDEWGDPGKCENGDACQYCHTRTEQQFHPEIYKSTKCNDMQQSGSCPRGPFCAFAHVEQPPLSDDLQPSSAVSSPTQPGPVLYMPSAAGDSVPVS"}
{"Oligonucleotide": "AGCCCGGGAUUUGAUUCCGAGCCUGUGACUACAUCACAGCCGUCUCUGUCUGUUCUCCCCACAGUUAAGAUCCUUCUGUUCUACGUGAUAUUUUAUGGCUGCCUGGCUGGCAUCUUCAUC", "bound/input enrichment [ratio]": 0.0972}
{"Oligonucleotide": "UCCCAGAGAUAAGUUCACCAAGAUGUCCAGUGACAGGCAAAGGUCGGAUGAUGAGAGCCCUAGCACCAGCAGUGGCAGUUCAGAUGCAGAUCAGCGAGACCCUGCCGCUCCAGAGCCCGA", "bound/input enrichment [ratio]": 0.122}
{"Oligonucleotide": "CUUGGUGUUCAUAUGUAUCUUUUAAUUUUUUUGAAAUUUGUUCAAGCUGUCAUUCCAACAAUAGAAUAUGACUACACAAGACACUUCACAAUGUAGUGGAGAGGCUAUAGAGUCUAUCCU", "bound/input enrichment [ratio]": 6.33}
{"Oligonucleotide": "CUGGAUAAUGCCGCAGAAGCAGCUGAACAAUUUAAAUUAAUCCAAGCAGCAUAUGAUGUGUUGAGUGACCCUCAGGAAAGAGCAUGGUAUGAUAAUCAUAGAGAGGCCCUACUUAAAGGU", "bound/input enrichment [ratio]": 0.39}
{"Oligonucleotide": "CAUUCAAAAUGGGUAUUCUUGAUUUCCUCAGAACUGAUAAAAAAUAAUGCAACAUCACCAACAGAUCCUGUUAUUUCCUCUGCAGGAUACAGUUCAAUAUGAUGCAUGAAAAAUGCUCCA", "bound/input enrichment [ratio]": 0.194}
{"Oligonucleotide": "ACGCGAUGACAGUGACCUGGCCAUCGGCACUCUCCUGGGAGGACUGGCUCAGGGCCAUUUAAUAGCUACAGCUUCAUGCCUCUUGCCACCAAUCAGACAUUAGCAAUUCCUUUCUCUUUU", "bound/input enrichment [ratio]": 0.565}
{"Oligonucleotide": "AUCCCACUGAAAGAUUUAAAGUAUUAUAGAUGUAUCUUGUUAAUUCCUGAUAUCUAUAAUAAGCAGCAUGUGAAAGAACUAGUGAAUAUGAUACUAAUGAAGAUGGGUUUUUCAGGGAUU", "bound/input enrichment [ratio]": 1.59}
{"Oligonucleotide": "GUAGGCUAUCCAGGAGACCCAGUUUAUUGGUUGGGAAAAUACAGAAAUGAAGAGUGUGACCCAGGUGGCUGUCUUCUUGAACUGACAACUCAGCUGACAAUAAUCAUGGGAGGAAAAGCA", "bound/input enrichment [ratio]": 0.192}
{"Oligonucleotide": "GAAAGAGAAGCUAAAACAACUGAUUGAGAAGAGGAUUGGCAAAGAGAAUUUCAUAGAGAAACUAGGAUUUAUUAGCAAACAUGAGUUGUAUUCCAGAGCAUCUCAGAAACCCCAGCCAAA", "bound/input enrichment [ratio]": 29.3}
{"Oligonucleotide": "CCUCUACUUCAGUACUUUGGUAUCCUUUUGGACCAGGGACAGCUCAACAAAUACGAAUCCUUAGAGCUUUGUAGGCCUGUACUUCAGCAAGGGCGAAAACAGCUUUUGGAGAAAUGGUUA", "bound/input enrichment [ratio]": 0.0855}
{"Oligonucleotide": "CCGCCUAGUGGGCUAUAUCUGCAACUUGAAGGGAAGAUAAAAGAAACAUCUUCUUUGGAAUAGAUGGGAAUUUUUUUCACUUUCUGUGAACUAAAGCGAUUCAAUGUCUCUUUUGGAUUG", "bound/input enrichment [ratio]": 0.174}
{"data": "Set 4", "target": "RNA binding protein fox-1 homolog 2, RRM domain, GST-SBP tag (RBFOX2, Homo sapiens, UniProt O43251-10, residues 100-194)", "technique": "RNA Bind-n-Seq", "form": "RNA", "medium": "in vitro", "concentration": "365 nM", "setting": "natural RNA segment, single round, ends assumed", "reference": "no-protein control", "reading": "higher = stronger binding", "constant ends, left off below": "GGGAGUUCUACAGUCCGACGAUC … UGGAAUUCUCGGGUGCCAA", "Residues (chain)": "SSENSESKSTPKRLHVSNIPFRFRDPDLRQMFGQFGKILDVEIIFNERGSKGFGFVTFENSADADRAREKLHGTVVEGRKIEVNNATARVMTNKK"}
{"Oligonucleotide": "CCUUUCUCCUGUGGACUAGCCUGGAAAGGAGGCGCUUCUAGGCCACCUGGCACAGUUUUCUCUGAACUCUGGAAGACUUCUGAUGGGUGGUGUUCAGCUUCGACAAAGAU", "RBNS enrichment (R)": 0.443}
{"Oligonucleotide": "GGGUACUGGGUUGAAGAUCCAGCCACUUAAUUUCCCCUCUGAUUGUUUUGAUAUCUGAGAGACAGAAAGGUCUCCCCAGGCUGGUCUCCAACUCCUGGCAAUCCUCCUGC", "RBNS enrichment (R)": 0.415}
{"Oligonucleotide": "CCUGACUAUUUGUAAAUGCUUUAGAGUUUUAAAUUAACACUUCUGUUGCUAAAUACUAUUUAUGUAAGUCUGAAAAGGUUUUUAACCCAUAUAAAACAUUUAAAUAAUGC", "RBNS enrichment (R)": 0.556}
{"Oligonucleotide": "UCCCUCCUGCACACUGGGGCUUCCCUUCACCAGGAGCAAAUCACUUCAACCUCCCGUGCCUCGUUUCCUCCCUCUGUAGCAUGGGGCUCGAGACUCCUGUUUGUGAGGGA", "RBNS enrichment (R)": 0.697}
{"Oligonucleotide": "AGUUUCAACUGGCCUUACAUGUCCAUCCAGUGUUCCUAGACUUUGGGUGUUUCCCACCCAAUCCUGCUCCCUGACUCCCUAGAGACUAAGAGGACUCUCCCUGACCAAGG", "RBNS enrichment (R)": 0.296}
{"Oligonucleotide": "UCUGGCCCAGUGAGCAGCUCAGCCCACGUGACCUUUGGGUUGUAGAAAUAAAGUGCAUGAACUGUUCUCUGCUAUAUCCUAGUCUCCCACACAGUGCGAGUCGGAGUGAG", "RBNS enrichment (R)": 2.7}
{"Oligonucleotide": "UAGACAUCUAAUAAAUUUUGCUUGGAAGUAUACUUCAGUUUUUCUUCUUGACAUUUAUCUUUAUAAAAAUUGUGUAUUUUAUUCCAACUUGUUAAACUAAGAGAAAAUGC", "RBNS enrichment (R)": 1.19}
{"Oligonucleotide": "UUUGUCUCCAGUCUGGUGCCAGGCAGUAGAGUGGAAAAGGAGGCUAUUUUUUUAUUCUAUGUGCACACAUACAGUAUACAUAUAUAUUUAUAUCACAUUUUACUGAACCA", "RBNS enrichment (R)": 0.501}
{"Oligonucleotide": "GGAAGCAUUUUGGAUAUGAUGCAGGAAAUCUCUUCCUGGAGUCAAAAGUUCCCAAGAGGUCCUGUAUUUUUAAGAAAUGGAAUUUAUUUAAAUAAUAUUUAAGCUUGUGC", "RBNS enrichment (R)": 1.23}
{"Oligonucleotide": "CAGCACAACAAAUUAAAACAACUCAUGCCACAGUAUGUUGUCUUCAUGUGUCUUGCAAUGAACUGUUUCAGUAGCCAAUCCUCUUAGUAUAUGAAAGGACAGGGAUUUUU", "RBNS enrichment (R)": 0.462}
{"Oligonucleotide": "UGUAAUGCACUUUGGGAGGCCAAGGCGGGAGGAUUGCUUGAGCCCAGGAGUUCAAGACCAGCCUGGGCAACAUACCAAGACCCCCGUCUCUUUAAAAAUAUAUAUAUUUU", "RBNS enrichment (R)": 0.372}
{"Oligonucleotide": "CCCUUCUCUCUCCUGAGGUGAAGCUUUUCCAGGUUUUGUUGAAGAGAUACCUGCCAGCACUUCUGCAAGCUGAAAUUUACAGAAGCAAAUUCACCAGAAGGGAAACAUCU", "RBNS enrichment (R)": 0.288}
{"note": "A few entries again (set 2):"}
{"Oligonucleotide": "ACAGGGGC", "E-score": -0.101}
{"Oligonucleotide": "CCCGGCGC", "E-score": 0.322}
{"Oligonucleotide": "CAAATAGC", "E-score": -0.0242}
{"Oligonucleotide": "ATCCGTTA", "E-score": 0.171}
